Results from different studies.
Lines come from different studies, so protocols differ. Several values in a cell are separate wells, animals, samples, runs or records. Numbers after ± are the reported error.
MAPK8: Mitogen-activated protein kinase 8 (MAPK8, Homo sapiens, UniProt P45983)
Chain of UniProt P46089 (whole entry, unmodified, looked up): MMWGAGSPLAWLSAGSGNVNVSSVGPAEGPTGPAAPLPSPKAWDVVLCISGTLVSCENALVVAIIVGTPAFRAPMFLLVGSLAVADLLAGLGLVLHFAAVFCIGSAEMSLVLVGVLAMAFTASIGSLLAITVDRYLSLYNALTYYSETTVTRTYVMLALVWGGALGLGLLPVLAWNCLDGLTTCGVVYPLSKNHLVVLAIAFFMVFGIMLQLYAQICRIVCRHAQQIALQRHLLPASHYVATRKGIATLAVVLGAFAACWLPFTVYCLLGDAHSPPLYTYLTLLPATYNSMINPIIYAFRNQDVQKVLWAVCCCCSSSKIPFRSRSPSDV
Chain of UniProt Q92633 (whole entry, looked up): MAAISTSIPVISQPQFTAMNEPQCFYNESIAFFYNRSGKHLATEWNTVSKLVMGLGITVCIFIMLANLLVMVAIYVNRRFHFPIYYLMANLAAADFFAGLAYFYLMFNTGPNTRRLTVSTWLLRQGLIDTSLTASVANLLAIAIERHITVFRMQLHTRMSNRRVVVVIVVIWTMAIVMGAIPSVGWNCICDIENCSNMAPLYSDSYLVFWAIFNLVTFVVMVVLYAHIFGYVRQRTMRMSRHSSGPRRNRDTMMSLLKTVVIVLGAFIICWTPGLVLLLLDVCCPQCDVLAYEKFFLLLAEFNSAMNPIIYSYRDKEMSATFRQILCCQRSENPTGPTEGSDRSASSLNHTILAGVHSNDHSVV
Chain of UniProt P45983 (whole entry, looked up): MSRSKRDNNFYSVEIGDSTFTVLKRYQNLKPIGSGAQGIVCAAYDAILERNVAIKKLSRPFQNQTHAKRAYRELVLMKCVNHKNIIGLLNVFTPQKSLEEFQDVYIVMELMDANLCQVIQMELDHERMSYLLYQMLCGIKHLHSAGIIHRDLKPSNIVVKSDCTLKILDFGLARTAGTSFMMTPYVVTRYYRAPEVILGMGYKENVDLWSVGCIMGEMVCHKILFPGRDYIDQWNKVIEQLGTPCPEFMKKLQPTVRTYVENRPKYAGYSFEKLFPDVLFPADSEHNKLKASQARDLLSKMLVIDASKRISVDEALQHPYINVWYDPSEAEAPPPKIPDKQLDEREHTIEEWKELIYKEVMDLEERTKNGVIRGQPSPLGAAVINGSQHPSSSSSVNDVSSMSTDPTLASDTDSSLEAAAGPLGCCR
Chain of UniProt Q96S37 (whole entry, looked up): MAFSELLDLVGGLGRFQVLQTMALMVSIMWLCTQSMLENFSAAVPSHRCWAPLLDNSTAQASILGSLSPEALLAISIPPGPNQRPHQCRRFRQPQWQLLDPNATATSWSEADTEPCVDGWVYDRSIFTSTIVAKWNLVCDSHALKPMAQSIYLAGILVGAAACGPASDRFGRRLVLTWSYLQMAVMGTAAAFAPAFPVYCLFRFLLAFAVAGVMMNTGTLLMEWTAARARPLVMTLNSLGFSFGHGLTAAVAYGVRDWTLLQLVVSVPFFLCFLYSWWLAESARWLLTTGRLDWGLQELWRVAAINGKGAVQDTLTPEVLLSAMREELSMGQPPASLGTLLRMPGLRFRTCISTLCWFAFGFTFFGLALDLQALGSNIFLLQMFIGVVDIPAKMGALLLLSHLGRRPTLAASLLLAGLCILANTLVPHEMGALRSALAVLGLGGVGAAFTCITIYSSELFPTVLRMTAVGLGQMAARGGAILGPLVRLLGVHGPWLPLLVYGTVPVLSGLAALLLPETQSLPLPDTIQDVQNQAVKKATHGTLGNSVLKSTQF
Chain of UniProt P02754 (whole entry, unmodified, looked up): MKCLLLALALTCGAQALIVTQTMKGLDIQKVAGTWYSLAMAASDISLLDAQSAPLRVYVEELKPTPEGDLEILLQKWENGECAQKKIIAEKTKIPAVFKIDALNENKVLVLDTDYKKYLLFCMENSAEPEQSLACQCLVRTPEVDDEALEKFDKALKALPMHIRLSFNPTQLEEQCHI
Chain of UniProt O35433 (whole entry, looked up): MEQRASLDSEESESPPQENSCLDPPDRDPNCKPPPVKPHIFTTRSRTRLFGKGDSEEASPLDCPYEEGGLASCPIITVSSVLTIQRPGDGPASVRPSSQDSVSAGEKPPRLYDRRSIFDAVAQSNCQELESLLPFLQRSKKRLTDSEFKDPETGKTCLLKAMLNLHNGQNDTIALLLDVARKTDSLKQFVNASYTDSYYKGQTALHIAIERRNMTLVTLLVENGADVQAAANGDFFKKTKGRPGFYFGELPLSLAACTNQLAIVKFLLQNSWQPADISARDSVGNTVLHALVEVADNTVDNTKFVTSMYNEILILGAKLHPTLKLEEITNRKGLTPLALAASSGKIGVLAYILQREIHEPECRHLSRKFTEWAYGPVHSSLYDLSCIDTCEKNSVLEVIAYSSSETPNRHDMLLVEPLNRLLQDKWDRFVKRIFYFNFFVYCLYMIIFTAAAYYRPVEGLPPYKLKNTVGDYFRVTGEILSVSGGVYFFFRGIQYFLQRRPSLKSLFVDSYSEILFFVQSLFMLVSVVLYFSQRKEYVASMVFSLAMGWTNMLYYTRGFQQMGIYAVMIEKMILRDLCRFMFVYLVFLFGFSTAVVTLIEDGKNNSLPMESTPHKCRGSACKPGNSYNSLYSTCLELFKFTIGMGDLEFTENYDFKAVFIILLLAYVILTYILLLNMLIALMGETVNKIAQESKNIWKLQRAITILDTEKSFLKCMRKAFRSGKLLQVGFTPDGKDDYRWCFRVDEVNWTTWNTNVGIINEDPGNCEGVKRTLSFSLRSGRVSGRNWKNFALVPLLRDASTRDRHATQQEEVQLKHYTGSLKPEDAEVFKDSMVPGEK
Chain of UniProt Q15910 (whole entry, looked up): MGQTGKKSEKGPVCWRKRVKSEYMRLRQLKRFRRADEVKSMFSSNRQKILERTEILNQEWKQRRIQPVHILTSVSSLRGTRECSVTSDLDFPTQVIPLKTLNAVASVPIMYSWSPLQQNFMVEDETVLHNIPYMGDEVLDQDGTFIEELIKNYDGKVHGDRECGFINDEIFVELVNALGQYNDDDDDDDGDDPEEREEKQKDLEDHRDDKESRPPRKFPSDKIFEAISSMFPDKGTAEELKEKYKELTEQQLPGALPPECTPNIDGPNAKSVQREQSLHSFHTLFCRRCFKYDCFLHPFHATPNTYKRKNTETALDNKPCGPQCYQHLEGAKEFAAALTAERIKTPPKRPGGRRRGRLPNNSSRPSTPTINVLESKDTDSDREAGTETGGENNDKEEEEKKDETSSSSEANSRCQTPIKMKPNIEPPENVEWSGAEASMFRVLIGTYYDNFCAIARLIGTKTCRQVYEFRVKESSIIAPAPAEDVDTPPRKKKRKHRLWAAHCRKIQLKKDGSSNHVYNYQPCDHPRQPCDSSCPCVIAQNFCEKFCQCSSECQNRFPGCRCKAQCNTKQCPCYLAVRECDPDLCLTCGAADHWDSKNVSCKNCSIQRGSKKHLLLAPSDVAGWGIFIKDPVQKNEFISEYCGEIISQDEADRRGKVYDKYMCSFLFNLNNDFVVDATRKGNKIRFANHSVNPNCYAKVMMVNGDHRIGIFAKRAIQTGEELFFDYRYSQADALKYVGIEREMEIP
Chain of UniProt O75385 (whole entry, looked up): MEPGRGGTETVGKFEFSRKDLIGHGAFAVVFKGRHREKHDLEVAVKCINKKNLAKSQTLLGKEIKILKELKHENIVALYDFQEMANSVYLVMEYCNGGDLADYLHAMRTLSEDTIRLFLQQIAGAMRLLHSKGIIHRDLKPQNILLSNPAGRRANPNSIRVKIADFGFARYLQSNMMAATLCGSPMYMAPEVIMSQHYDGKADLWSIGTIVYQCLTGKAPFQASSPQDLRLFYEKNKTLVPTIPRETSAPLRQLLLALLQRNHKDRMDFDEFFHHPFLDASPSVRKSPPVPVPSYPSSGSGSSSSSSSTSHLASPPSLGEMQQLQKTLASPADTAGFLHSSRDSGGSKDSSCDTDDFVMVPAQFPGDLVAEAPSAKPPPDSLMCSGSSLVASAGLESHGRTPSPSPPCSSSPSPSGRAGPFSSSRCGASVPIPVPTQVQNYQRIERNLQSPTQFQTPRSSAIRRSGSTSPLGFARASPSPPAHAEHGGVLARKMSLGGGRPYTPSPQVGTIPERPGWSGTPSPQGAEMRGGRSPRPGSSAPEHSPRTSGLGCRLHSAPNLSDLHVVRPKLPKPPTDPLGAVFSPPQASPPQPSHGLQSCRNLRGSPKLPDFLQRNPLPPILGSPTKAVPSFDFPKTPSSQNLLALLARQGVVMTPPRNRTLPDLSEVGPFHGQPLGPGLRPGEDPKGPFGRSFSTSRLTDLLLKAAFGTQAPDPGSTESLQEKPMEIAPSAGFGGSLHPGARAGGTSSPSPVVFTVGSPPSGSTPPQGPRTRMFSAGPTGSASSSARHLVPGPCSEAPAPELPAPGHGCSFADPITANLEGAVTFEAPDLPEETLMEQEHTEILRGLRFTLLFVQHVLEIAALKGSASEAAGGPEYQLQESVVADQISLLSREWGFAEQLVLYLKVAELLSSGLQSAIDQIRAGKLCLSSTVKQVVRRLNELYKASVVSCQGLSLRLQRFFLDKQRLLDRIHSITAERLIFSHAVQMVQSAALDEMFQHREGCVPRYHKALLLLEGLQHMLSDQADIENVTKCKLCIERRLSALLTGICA

SMILES	target	assay	system	setting	how to read	quantity	result
CCCCCCCC/C=C\CCCCCCCC(=O)OCC(O)COP(=O)(O)O (stereo not shown)	LPAR1 (Homo sapiens, UniProt Q92633)	G-protein dissociation, agonist, NanoBiT	HEK-293T	100 nM, wild-type receptor	baseline: baseline luminescence	fold change	0.694 and 0.77 and 0.719 and 0.716 and 0.777 and 0.723
C=C1CC2(C(=O)OC)C=C(C(=O)OC(C)(C)C)C(=O)C1C2 (stereo not shown)	MAPK8	D-peptide binding, inhibitor, FP peptide displacement	–	500 µM	lower is stronger displacement	fraction bound	0.119
CC(C)Oc1cc(Cl)ccc1CNc1cc(-c2ccccc2)nc2ncnn12	GPR3 (Homo sapiens, UniProt P46089, L136A)	cAMP level, cAMP GloSensor	–	1 µM	higher = more cAMP	cAMP luminescence	45200 a.u. and 43400 a.u. and 34100 a.u. and 46700 a.u.
O=C(NS(=O)(=O)c1cccs1)c1cc2ccccc2n1Cc1ccc(Br)c2ccccc12	SLC22A12 (Homo sapiens, UniProt Q96S37)	binding, SPR	–	–	–	kon	3240 M⁻¹ s⁻¹
CN(C)c1ccc(-n2cc(COC(=O)[C@]3(C)C=C(C(=O)OC(C)(C)C)C(=O)CC3)nn2)cc1	MAPK8	D-peptide binding, inhibitor, FP peptide displacement	–	1.562 µM	lower is stronger displacement	fraction bound	0.912
O=C(c1ccc([N+](=O)[O-])cc1)N1CCN(CC(OCc2ccc3ccccc3c2)c2ccc(Cl)cc2Cl)CC1 (stereo not shown)	ULK1 (Homo sapiens, UniProt O75385)	enzyme activity, inhibitor, ADP detection	–	0.1 µM	–	activity vs control	114%
C/C1=C\CC/C(C)=C/CC(C)(C)/C=C/C1	Trpv1 (Rattus norvegicus, UniProt O35433)	inhibitor, outside-out patch clamp	–	100 µM, 5 min, together with: pH 5.5 activation	–	remaining current fraction	0.07 ± 0.03
CCCCCC=CC=C1C(=O)C=CC1CC=CCCCC(=O)O (stereo not shown)	Elongation factor 2 (EEF2, Homo sapiens, UniProt P13639)	competitive isoTOP-ABPP	Ramos soluble proteome	100 µM, together with: iodoacetamide probe	baseline: DMSO over compound-treated, higher = stronger cysteine blockade	isoTOP-ABPP competition ratio	2
CN1CCCN(c2cnc3c(cc(C(=O)NCc4ccc(Cl)cc4)c(=O)n3CC(=O)N3CC(C)(F)C3)n2)C1=O	DNA polymerase catalytic subunit (Human cytomegalovirus, UniProt P08546)	enzyme activity, inhibitor	–	–	–	Hill slope	0.66
O=C(O)[C@@H]1O[C@@H](O[C@H]2[C@H](O)[C@H](O)[C@H](O[C@H]3[C@H](O)[C@H](O)[C@H](O[C@H]4[C@H](O)[C@H](O)[C@H](O)O[C@H]4C(=O)O)O[C@H]3C(=O)O)O[C@H]2C(=O)O)[C@@H](O)[C@@H](O)[C@@H]1O	Beta-lactoglobulin (LGB, Bos taurus, UniProt P02754, A134V/G80D)	isothermal titration calorimetry	–	pH 4.00, 37 °C, 50 mM KH2PO4	–	-TΔS	0.239 kcal/mol
O=C(O)[C@H]1O[C@@H](Oc2ccc([N+](=O)[O-])cc2)[C@H](O)[C@@H](O)[C@H]1O	Adhesin FmlH, lectin domain (Escherichia coli, UniProt Q1RBS0)	binding to desialylated mucin, ELISA competition	UPEC UTI89	100 µM	–	inhibition	-2.4 ± 5.2%
COc1cc(C2C(NC(=O)c3ccc(NC(=O)OC(C)(C)C)cc3)(C(=O)O)C(c3ccc(OC(=O)c4cccs4)c(OC)c3)C2(NC(=O)c2ccc(NC(=O)OC(C)(C)C)cc2)C(=O)O)ccc1OC(=O)c1cccs1 (stereo not shown)	GLP1R (Homo sapiens, UniProt P43220, L144A)	cAMP accumulation, agonist	–	receptor mutant	baseline: wild type	Emax	19 ± 5.12%
CSc1cc(C)[nH]c(=O)c1CNC(=O)c1c(C)n(C(C)C2CCC(NC3(C)COC3)CC2)c2ccccc12 (stereo not shown)	EZH2 (Homo sapiens, UniProt Q15910)	binding, jump dilution	–	together with: H3K27me3 activating peptide	–	residence time	5340 min

Repeated from above:
SMILES	target	assay	system	setting	how to read	quantity	result
CN1CCCN(c2cnc3c(cc(C(=O)NCc4ccc(Cl)cc4)c(=O)n3CC(=O)N3CC(C)(F)C3)n2)C1=O	DNA polymerase catalytic subunit (Human cytomegalovirus, UniProt P08546)	enzyme activity, inhibitor	–	–	–	Hill slope	0.66
CSc1cc(C)[nH]c(=O)c1CNC(=O)c1c(C)n(C(C)C2CCC(NC3(C)COC3)CC2)c2ccccc12 (stereo not shown)	EZH2 (Homo sapiens, UniProt Q15910)	binding, jump dilution	–	together with: H3K27me3 activating peptide	–	residence time	5340 min
